Literature values, collected from citations in different studies.
± gives the spread as reported.

SMILES = C[C@@H](Nc1c(-c2c(F)cc(C#CCCN)cc2F)c(Cl)nc2ncnn12)C(C)(C)C; cell line = HEK293; setting = 10 µM, 4 h, unit not given; how to read = relative to: vehicle (DMSO); measurement = total α-tubulin level; value = 0.91 ± 0.12
SMILES = Oc1cccc(-c2cccc(O)n2)n1.[Cl-].[Cl-].[Ru+2].c1cnc2c(c1)c1c(c3cccnc32)OCCO1.c1cnc2c(c1)c1c(c3cccnc32)OCCO1; cell line = MCF7; how to read = relative to: dark IC50 over light IC50; measurement = phototoxicity index; value = 120
SMILES = O=C1c2ccccc2-c2c1c1ccccc1c(=O)n2C[C@H](O)[C@@H](O)[C@H](O)CO; cell line = 60 cancer cell lines; assay = cell growth; setting = 10 µM; measurement = mean growth; value = 34.9%
SMILES = C[C@H](Nc1c(-c2c(F)cc(OCCCN)cc2F)c(Cl)nc2ncnn12)C(F)(F)F; cell line = HEK293; setting = 10 µM, 4 h, unit not given; how to read = relative to: vehicle (DMSO); measurement = total α-tubulin level; value = 0.77 ± 0.09
SMILES = Oc1cccc(-c2cccc(O)n2)n1.[Cl-].[Cl-].[Ru+2].c1cnc2c(c1)ccc1cccnc12.c1cnc2c(c1)ccc1cccnc12; cell line = MCF7; how to read = relative to: dark IC50 over light IC50; measurement = phototoxicity index; value = 2.8
SMILES = O=C1NCCN1CC(O)Cn1c2ccc(F)cc2c2cc(F)ccc21 (centres unmarked); cell line = sample B glioblastoma stem cells; assay = viability; measurement = EC50; value = 15 µM
SMILES = CCn1cc(-c2cc(Cn3ccnc3)cc3c2CCN([C@H](c2cc(OC)ccn2)C2CC2)C3=O)c(C(F)(F)F)n1; cell line = MOLM-13; assay = cell proliferation; measurement = GI50; value = 0.037 ± 0.0081 µM
SMILES = O=C1c2ccccc2-c2c1c1ccccc1c(=O)n2C[C@@H](O)[C@@H](O)[C@H](O)[C@H](O)CO; cell line = 60 cancer cell lines; assay = cell growth; setting = 10 µM; measurement = mean growth; value = 69.3%

Repeated from above:
SMILES = O=C1NCCN1CC(O)Cn1c2ccc(F)cc2c2cc(F)ccc21 (centres unmarked); cell line = sample B glioblastoma stem cells; assay = viability; measurement = EC50; value = 15 µM
